Measured values collected from several papers.
Every numbered part comes from another study and shows a few of its results, in no order. Positions count from the first letter of the parent shown.

Block 1
Target: ABI1, truncated, D143A, DHFR fusion (Arabidopsis thaliana)
Technique: DHFR PCA, deep sequencing
Matrix: yeast
Setting: methotrexate growth selection, single substitutions
Together with: (+)-ABA 200 µM
Relative to: wild-type fitted maximum
Reading: higher = stronger binding
Quantity: relative binding score
Parent: PYL1, truncated, DHFR fusion (Arabidopsis thaliana); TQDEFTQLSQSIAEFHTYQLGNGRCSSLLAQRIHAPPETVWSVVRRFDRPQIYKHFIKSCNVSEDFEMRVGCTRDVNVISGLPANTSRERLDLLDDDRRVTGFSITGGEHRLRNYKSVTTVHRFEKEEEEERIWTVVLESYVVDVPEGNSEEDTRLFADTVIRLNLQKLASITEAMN; partner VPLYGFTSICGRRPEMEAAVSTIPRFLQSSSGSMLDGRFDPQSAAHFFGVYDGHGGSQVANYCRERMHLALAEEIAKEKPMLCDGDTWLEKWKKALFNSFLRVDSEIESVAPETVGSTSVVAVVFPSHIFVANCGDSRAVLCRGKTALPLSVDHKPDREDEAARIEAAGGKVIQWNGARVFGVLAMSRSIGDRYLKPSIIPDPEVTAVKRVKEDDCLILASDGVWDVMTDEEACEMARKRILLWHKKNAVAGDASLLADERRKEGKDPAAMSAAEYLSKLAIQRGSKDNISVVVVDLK
E151I: 94.4%
E139C: 91.7%
N114F: 27.4%
E64N: 101%
Q51V: 58.2%
Y141G: -2.64%
S80Q: 53%
I12H: 68.5%

Block 2
Target: CCNF, cyclin fold, Cln2 fusion (human)
Technique: yeast growth competition, sequencing
Matrix: yeast
Setting: strong parent motif
Relative to: not given
Reading: higher = stronger binding
Quantity: normalised enrichment score
Parent: viral docking peptide; KKAKRRLFTISDS
KKAKKRLFTISDS [R5K]: 1.16
KKAKRRLFTISDA [S13A]: 4.41
KKAKRRLLTISDS [F8L]: 1.02
KKAKRALFTISDS [R6A]: 4.4
KKAKRRLFTASDS [I10A]: 5.43
KKAARRLFTISDS [K4A]: 3.88
AKAKRRLFTISDS [K1A]: 5.49
KKAKRRLFTISAS [D12A]: 1.8

Block 3
Target: UDP-N-acetylglucosamine--peptide N-acetylglucosaminyltransferase 110 kDa subunit (OGT, Homo sapiens, UniProt O15294)
UniProt O15294, sequence (whole entry, looked up): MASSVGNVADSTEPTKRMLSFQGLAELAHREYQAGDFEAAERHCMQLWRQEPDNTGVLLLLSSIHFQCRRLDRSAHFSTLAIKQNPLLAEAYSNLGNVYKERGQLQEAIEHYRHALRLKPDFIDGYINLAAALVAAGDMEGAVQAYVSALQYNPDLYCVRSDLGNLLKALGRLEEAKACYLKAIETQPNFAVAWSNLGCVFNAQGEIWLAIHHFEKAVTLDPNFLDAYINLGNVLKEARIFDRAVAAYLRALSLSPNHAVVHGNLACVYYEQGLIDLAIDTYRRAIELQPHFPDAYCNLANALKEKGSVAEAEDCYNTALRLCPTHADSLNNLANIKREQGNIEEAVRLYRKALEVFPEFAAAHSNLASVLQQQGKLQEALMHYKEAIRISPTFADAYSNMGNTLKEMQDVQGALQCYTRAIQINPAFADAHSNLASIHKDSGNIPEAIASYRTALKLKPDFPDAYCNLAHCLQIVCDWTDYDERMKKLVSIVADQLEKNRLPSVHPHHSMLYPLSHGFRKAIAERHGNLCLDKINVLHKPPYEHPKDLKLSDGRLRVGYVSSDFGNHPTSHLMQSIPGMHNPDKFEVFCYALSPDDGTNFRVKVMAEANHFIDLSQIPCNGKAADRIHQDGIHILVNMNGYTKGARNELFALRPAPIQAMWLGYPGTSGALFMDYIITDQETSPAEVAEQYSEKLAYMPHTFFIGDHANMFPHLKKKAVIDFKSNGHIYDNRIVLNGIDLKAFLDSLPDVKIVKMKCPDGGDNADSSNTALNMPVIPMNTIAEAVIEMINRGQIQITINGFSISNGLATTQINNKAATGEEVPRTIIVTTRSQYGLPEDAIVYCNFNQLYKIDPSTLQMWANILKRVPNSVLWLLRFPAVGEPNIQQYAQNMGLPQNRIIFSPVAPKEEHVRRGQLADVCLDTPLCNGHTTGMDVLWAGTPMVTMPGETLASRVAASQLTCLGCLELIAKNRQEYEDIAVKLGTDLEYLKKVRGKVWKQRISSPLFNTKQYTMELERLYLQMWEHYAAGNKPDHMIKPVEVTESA
Effect on: binding
Technique: phage display NGS
Molecule type: peptide
Setting: panning round 2
Relative to: input library
Quantity: minimum log2 enrichment ratio
AQFTPKYMIIPNDWL: 4.45
YEPMYLPQYQMIWNK: 4.91
HQAHHNMQWFQQDHV: 2.39

Block 4
Target: Histone acetyltransferase KAT6A, winged helix 2, GST fusion (KAT6A, Homo sapiens, UniProt Q92794, residues 85-181)
Technique: protein binding microarray
Molecule type: double-stranded DNA, one strand shown
Matrix: in vitro
Tested at: not given
Setting: 8-mer, flanks averaged, mean of 2 arrays, mostly near background
Relative to: not given
Reading: higher = stronger binding
Quantity: E-score
Target sequence (chain): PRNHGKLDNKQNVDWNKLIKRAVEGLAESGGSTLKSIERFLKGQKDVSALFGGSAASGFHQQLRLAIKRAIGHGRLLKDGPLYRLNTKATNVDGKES
TCATTTAA: -0.0377
CCGTCAGA: -0.193
ACTCGCCG: 0.0221
GCAGAGTA: 0.0772
AGTCGGCG: 0.157
ATCACCCC: -0.177
AGGTTAGA: -0.192
AGTCGGGA: 0.144

Some of these lines once more (block 2):
KKAARRLFTISDS [K4A]: 3.88
AKAKRRLFTISDS [K1A]: 5.49
KKAKRRLFTISAS [D12A]: 1.8
